# Measurements from different studies.
# “And” joins repeats or separate records; there may be more than shown. ± marks the error that the study gave.
# GLP1R: Glucagon-like peptide 1 receptor (GLP1R, Homo sapiens, UniProt P43220)
# Sequence of UniProt P43220 (whole entry, looked up): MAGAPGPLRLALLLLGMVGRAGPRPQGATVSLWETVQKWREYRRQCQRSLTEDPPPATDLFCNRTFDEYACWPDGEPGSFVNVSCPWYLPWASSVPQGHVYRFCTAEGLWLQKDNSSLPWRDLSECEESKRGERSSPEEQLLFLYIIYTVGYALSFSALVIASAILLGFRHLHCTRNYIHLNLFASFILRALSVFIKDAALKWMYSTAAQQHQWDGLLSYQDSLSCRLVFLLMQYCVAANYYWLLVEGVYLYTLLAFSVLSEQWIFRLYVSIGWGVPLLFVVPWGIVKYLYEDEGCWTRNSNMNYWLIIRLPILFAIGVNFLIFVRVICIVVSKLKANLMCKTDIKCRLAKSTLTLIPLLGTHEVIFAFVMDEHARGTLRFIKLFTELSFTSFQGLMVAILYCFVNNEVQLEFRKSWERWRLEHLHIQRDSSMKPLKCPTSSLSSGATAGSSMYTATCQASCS
# Ugcg: Ceramide glucosyltransferase (Ugcg, Mus musculus, UniProt O88693)
# Sequence of UniProt O88693 (whole entry, looked up): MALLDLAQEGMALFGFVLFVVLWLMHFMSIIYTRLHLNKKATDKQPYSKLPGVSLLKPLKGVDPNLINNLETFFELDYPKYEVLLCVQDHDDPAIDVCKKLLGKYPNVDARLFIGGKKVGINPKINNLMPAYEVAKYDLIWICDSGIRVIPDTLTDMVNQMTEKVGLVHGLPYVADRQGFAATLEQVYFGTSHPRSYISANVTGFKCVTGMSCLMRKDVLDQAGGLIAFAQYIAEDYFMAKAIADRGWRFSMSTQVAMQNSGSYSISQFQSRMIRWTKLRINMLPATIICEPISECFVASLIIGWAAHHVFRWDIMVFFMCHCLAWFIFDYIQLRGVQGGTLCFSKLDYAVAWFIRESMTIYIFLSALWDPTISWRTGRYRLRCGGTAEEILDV
# Lysophospholipase-like protein 1: Lysophospholipase-like protein 1 (Mus musculus, UniProt Q3UFF7)
# Sequence of UniProt Q3UFF7 (whole entry, looked up): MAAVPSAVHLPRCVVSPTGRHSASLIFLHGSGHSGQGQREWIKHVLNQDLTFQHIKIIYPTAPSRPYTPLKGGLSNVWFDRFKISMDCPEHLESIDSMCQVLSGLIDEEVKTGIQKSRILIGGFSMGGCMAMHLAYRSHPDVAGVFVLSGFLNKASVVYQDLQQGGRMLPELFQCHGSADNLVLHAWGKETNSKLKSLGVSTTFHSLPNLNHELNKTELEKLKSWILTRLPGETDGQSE
# Sequence of UniProt P46089 (whole entry, unmodified, looked up): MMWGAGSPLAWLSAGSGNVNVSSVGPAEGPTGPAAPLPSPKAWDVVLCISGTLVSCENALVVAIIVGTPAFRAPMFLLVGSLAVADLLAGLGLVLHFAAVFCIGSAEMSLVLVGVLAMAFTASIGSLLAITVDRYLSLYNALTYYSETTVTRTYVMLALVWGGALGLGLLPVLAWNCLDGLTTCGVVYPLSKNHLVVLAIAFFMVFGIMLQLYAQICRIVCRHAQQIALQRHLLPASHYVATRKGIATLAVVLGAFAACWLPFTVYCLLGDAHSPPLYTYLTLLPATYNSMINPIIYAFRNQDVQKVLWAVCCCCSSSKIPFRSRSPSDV
# Sequence of UniProt Q8TDS7 (whole entry, looked up): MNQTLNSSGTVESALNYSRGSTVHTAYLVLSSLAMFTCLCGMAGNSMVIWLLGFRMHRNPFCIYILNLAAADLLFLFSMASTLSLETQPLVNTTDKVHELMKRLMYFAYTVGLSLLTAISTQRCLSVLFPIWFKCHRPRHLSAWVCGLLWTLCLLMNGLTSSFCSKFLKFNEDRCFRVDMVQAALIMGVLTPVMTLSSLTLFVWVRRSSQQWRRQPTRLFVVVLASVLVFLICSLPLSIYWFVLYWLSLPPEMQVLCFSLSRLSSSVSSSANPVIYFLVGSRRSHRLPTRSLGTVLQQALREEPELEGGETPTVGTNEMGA
# Sequence of UniProt P0DMS8 (whole entry, unmodified, looked up): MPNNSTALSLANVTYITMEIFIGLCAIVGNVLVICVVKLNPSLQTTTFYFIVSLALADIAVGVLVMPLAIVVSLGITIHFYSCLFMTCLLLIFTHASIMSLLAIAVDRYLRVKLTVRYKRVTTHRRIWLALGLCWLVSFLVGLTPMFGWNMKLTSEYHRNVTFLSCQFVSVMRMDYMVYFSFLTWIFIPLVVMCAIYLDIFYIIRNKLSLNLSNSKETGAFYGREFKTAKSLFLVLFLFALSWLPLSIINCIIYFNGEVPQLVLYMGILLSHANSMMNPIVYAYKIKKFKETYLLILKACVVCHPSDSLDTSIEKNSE
# Sequence of UniProt P35414 (whole entry, looked up): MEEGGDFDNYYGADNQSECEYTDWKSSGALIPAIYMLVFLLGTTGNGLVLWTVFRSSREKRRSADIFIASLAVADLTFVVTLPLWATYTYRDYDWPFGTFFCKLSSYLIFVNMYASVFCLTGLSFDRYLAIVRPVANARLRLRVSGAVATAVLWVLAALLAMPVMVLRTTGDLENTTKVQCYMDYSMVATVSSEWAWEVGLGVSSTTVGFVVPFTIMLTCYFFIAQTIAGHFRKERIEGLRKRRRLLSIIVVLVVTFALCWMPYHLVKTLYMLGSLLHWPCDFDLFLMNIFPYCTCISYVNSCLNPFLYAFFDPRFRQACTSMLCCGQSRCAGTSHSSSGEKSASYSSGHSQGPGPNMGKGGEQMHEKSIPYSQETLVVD
# Sequence of UniProt O60895 (whole entry, looked up): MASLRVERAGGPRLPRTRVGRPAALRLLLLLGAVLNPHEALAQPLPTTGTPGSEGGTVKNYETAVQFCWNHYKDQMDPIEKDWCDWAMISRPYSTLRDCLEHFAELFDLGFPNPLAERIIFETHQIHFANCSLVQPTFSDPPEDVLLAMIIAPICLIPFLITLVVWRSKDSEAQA
# Sequence of UniProt P25103 (whole entry, looked up): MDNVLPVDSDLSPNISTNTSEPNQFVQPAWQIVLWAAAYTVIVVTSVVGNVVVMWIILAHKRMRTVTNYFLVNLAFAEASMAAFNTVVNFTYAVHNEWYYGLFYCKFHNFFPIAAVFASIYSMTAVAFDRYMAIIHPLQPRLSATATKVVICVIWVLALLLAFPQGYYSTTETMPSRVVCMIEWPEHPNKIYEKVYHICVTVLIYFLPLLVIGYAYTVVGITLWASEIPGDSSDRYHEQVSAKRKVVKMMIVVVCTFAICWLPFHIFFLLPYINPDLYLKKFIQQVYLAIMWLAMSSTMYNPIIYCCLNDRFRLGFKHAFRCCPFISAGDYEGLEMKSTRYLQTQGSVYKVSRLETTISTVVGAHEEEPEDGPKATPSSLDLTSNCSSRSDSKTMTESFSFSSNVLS
# Sequence of UniProt O75762 (whole entry, unmodified, looked up): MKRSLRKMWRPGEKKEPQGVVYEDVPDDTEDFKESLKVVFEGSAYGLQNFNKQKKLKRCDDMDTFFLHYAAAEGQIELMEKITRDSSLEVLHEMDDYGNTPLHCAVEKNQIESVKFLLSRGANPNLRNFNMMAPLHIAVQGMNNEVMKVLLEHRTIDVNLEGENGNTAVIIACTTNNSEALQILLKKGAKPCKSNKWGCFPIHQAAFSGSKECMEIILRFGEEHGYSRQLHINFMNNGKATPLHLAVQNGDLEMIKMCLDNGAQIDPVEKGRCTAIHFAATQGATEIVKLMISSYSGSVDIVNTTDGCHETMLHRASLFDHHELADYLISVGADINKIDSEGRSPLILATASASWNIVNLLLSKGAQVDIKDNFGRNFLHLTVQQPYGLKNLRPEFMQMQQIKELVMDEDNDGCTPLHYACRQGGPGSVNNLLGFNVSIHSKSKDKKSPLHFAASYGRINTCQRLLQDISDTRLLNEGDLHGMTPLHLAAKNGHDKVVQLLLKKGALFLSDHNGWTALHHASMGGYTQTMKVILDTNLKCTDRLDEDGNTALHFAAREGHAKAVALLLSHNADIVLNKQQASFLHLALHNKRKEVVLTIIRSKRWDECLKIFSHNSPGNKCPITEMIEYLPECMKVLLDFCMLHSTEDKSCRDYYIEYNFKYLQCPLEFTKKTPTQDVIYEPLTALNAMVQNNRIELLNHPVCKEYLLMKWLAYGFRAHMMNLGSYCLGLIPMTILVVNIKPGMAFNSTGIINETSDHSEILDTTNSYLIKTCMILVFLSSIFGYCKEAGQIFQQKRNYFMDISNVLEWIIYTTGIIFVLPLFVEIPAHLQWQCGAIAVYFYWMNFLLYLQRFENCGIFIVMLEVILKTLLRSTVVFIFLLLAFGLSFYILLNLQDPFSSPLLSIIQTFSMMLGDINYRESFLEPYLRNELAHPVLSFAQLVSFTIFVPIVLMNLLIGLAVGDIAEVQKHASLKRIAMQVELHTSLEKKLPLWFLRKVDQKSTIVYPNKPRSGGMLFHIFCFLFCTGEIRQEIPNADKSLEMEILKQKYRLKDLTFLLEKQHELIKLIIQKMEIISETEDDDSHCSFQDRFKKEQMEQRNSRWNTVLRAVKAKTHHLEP
# Sequence of UniProt Q16620 (whole entry, looked up): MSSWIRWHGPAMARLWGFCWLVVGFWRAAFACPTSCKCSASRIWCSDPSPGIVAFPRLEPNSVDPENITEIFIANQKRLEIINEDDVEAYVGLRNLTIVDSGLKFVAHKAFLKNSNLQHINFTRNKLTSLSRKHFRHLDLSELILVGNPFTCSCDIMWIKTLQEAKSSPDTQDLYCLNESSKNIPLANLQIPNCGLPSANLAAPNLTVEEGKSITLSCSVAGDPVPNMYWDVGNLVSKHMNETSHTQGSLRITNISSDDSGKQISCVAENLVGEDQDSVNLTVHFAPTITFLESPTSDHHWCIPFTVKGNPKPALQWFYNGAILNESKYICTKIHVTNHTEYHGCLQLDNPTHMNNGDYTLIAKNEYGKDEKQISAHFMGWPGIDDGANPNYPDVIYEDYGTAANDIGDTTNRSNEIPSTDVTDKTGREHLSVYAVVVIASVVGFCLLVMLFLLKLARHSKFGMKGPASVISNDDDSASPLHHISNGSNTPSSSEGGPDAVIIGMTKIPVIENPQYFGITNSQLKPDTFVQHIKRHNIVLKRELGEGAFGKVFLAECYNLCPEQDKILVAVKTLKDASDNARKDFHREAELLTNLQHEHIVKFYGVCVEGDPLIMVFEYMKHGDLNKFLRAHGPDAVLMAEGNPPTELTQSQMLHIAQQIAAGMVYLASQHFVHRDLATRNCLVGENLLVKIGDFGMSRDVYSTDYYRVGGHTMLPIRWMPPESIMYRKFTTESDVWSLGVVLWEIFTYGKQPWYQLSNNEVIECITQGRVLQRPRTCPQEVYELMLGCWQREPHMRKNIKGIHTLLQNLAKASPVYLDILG
target,test,test system,conditions,measurement,value,Compound
GLP1R,"reporter gene, agonist, luciferase",,,EC50,2.51e-06 µM and 4.7e-06 µM,CC[C@H](C)[C@H](NC(=O)[C@H](Cc1ccccc1)NC(=O)[C@H](CCC(=O)O)NC(=O)[C@H](CCCCN)NC(=O)[C@H](C)NC(=O)[C@H](C)NC(=O)[C@H](CCC(N)=O)NC(=O)CNC(=O)[C@H](CCC(=O)O)NC(=O)[C@H](CC(C)C)NC(=O)[C@H](Cc1ccc(O)cc1)NC(=O)[C@H](CO)NC(=O)[C@H](CO)NC(=O)[C@@H](NC(=O)[C@H](CC(=O)O)NC(=O)[C@H](CO)NC(=O)[C@@H](NC(=O)[C@H](Cc1ccccc1)NC(=O)[C@@H](NC(=O)CNC(=O)[C@H](CCC(=O)O)NC(=O)[C@H](C)NC(=O)[C@H](Cc1c[nH]cn1)NCc1c[nH]cn1)[C@@H](C)O)[C@@H](C)O)C(C)C)C(=O)N[C@@H](C)C(=O)N[C@@H](Cc1c[nH]c2ccccc12)C(=O)N[C@@H](CC(C)C)C(=O)N[C@H](C(=O)N[C@@H](CCCCN)C(=O)NCC(=O)N[C@@H](CCCNC(=N)N)C(N)=O)C(C)C
"GHSR (Homo sapiens, UniProt Q92847)","endosomal trafficking, bystander BRET",,60 min,EC50,0.126 µM,COc1ccc(C(=O)c2c(C(=O)NCCCN(C)C)oc3ccc(Cl)cc3c2=O)cc1OC
GLP1R,"reporter gene, agonist, luciferase",,,EC50,2e-06 µM and 2.8e-06 µM,CC[C@H](C)[C@H](NC(=O)[C@H](Cc1ccccc1)NC(=O)[C@H](CCC(=O)O)NC(=O)[C@H](CCCCN)NC(=O)[C@H](C)NC(=O)[C@H](C)NC(=O)[C@H](CCC(N)=O)NC(=O)CNC(=O)[C@H](CCC(=O)O)NC(=O)[C@H](CC(C)C)NC(=O)[C@H](Cc1ccc(O)cc1)NC(=O)[C@H](CO)NC(=O)[C@H](CO)NC(=O)[C@@H](NC(=O)[C@H](CC(=O)O)NC(=O)[C@H](CO)NC(=O)[C@@H](NC(=O)[C@H](Cc1ccccc1)NC(=O)[C@@H](NC(=O)CNC(=O)[C@H](CCC(=O)O)NC(=O)[C@H](C)NC(=O)[C@H](Cc1c[nH]cn1)NCc1ccc(O)cc1)[C@@H](C)O)[C@@H](C)O)C(C)C)C(=O)N[C@@H](C)C(=O)N[C@@H](Cc1c[nH]c2ccccc12)C(=O)N[C@@H](CC(C)C)C(=O)N[C@H](C(=O)N[C@@H](CCCCN)C(=O)NCC(=O)N[C@@H](CCCNC(=N)N)C(N)=O)C(C)C
"TACR1 (Homo sapiens, UniProt P25103)","cAMP, agonist",,,EC50,3.98 µM,CSCC[C@H](NC(=O)[C@H](CC(C)C)NC(=O)CNC(=O)[C@H](Cc1ccccc1)NC(=O)[C@H](Cc1ccccc1)NC(=O)[C@@H](N)CCC(N)=O)C(N)=O
"Probable G-protein coupled receptor 174 (Homo sapiens, UniProt Q9BXC1)","TGF-alpha shedding, agonist",,,EC50,> 10 µM,O=C(Cc1ccc(OCc2ccccc2)cc1)NC1(C(=O)O)CCN(C(=O)c2ccc(-c3cccc(Cl)c3)cc2)CC1
"Apelin receptor (APLNR, Homo sapiens, UniProt P35414)","cAMP, agonist, luciferase",,,EC50,0.01 µM,CCC(CC)n1c(Cc2cccs2)nc2cc(C(=O)NC(CC(=O)O)CC(C)C)ccc21 (stereo not shown)
"MRGPRD, part with Gi1 (Homo sapiens, UniProt Q8TDS7)","Gi1 dissociation, agonist, BRET2",,,EC50,0.0282 µM,COc1ccc(C2(C(=O)N3CCC(Nc4nc5ccccc5c(=O)[nH]4)CC3)CC2)cc1
"NTRK2 (Homo sapiens, UniProt Q16620)","enzyme activity, inhibitor",,added: 1 mM ATP,IC50,0.026 µM,CCn1nc(Cl)c2c1-c1cnc(N)c(c1)O[C@H](C)c1cc(F)ccc1-c1nn(C)cc1C2
"TRPA1 (Homo sapiens, UniProt O75762, V875M)",,,,EC50,0.015 µM,O=C(NC[C@@H](Cc1ccc(F)cc1)N1CCC(O)(C(F)(F)F)CC1)C1(c2ccc(Cl)cc2)CCCC1
"GPR3 (Homo sapiens, UniProt P46089, V196W)","cAMP level, agonist, cAMP GloSensor",,V196W mutant,EC50,3.34 µM,CC(C)Oc1cc(Cl)ccc1CNc1cc(-c2ccccc2)nc2ncnn12
Ugcg,"enzyme activity, inhibitor, fluorescence",,,IC50,0.15 µM,CCCCCOCCCCCN1C[C@H](O)[C@@H](O)[C@H](O)[C@@H]1CO
GLP1R,agonist,human cells,,EC50,1.26 µM,CC(C)(c1cccc2ccccc12)n1cc(CNc2ccc(C(=O)NCCC(=O)O)cc2)nn1
Lysophospholipase-like protein 1,"enzyme activity, activator, gel-based ABPP",,,EC50,2.6 µM,Cc1nc2ccc(S(=O)(=O)n3nc(CCc4ccc(Cl)cc4)nc3N)cc2s1
Ugcg,"enzyme activity, inhibitor",RAW264.7,"in situ, added: C6-NBD-ceramide",IC50,10 µM,OC[C@@H]1[C@@H](O)[C@H](O)[C@@H](O)CN1CCCCCOCC1CCOCC1
"ADORA3 (Homo sapiens, UniProt P0DMS8, V169A)","G protein activation, agonist",,,EC50,0.018 µM,CNc1ncnc2c1ncn2C1OC(CO)C(O)C1O (stereo not shown)
Lysophospholipase-like protein 1,"enzyme activity, activator, gel-based ABPP",,,EC50,> 20 µM,Nc1nc(NCc2ccc(Cl)cc2)nn1S(=O)(=O)c1ccc2c(c1)CCO2
"Adrenomedullin receptor AM1; CALCRL/RAMP2 (Homo sapiens, UniProt O60895+Q16602)","cAMP, agonist, TR-FRET",,,EC50,> 0.1 µM,CC[C@H](C)[C@H](NC(=O)[C@@H]1CCCN1C(=O)CNC(=O)[C@H](Cc1ccccc1)NC(=O)[C@H](CC(N)=O)NC(=O)[C@H](CC(N)=O)NC(=O)[C@H](CO)NC(=O)[C@H](CO)NC(=O)[C@H](Cc1c[nH]cn1)NC(=O)[C@H](CCCNC(=N)N)NC(=O)[C@H](CC(C)C)NC(=O)[C@H](Cc1ccccc1)NC(=O)[C@H](CCC(=O)O)NC(=O)[C@H](C)NC(=O)[C@H](CC(C)C)NC(=O)[C@H](CCCNC(=N)N)NC(=O)[C@H](CCC(N)=O)NC(=O)[C@@H](NC(=O)[C@H](C)NC(=O)[C@@H]1CSSC[C@H](NC(=O)[C@H](CCCCN)NC(=O)CC[C@H](NC(=O)CCCCCCCCCCCCCCCCCCC(=O)O)C(=O)O)C(=O)N[C@@H](CC(N)=O)C(=O)N[C@@H]([C@@H](C)O)C(=O)N[C@@H](C)C(=O)N[C@@H]([C@@H](C)O)C(=O)N1)[C@@H](C)O)C(=O)N[C@@H](CC(C)C)C(=O)N1CCC[C@H]1C(=O)N1CCC[C@H]1C(=O)N[C@H](C(=O)N[C@@H](CC(N)=O)C(=O)N[C@H](C(=O)NCC(=O)N[C@@H](CO)C(=O)N[C@@H](CC(N)=O)C(=O)N[C@H](C(=O)N1CCC[C@H]1C(N)=O)[C@@H](C)O)C(C)C)[C@@H](C)O
Lysophospholipase-like protein 1,"enzyme activity, activator, gel-based ABPP",,,EC50,> 20 µM,Cc1nc2ccc(S(=O)(=O)n3nc(NCc4ccc(Cl)cc4)nc3N)cc2s1
"uncharacterized protein (Bos taurus, UniProt E1BM68)","cAMP level, agonist, cAMP luminescence",HEK293 cells,,EC50,1070 ± 98.9 µM,CC1CCc2nccnc21 (stereo not shown)

# For quick reference, copied from above:
target,test,test system,conditions,measurement,value,Compound
"NTRK2 (Homo sapiens, UniProt Q16620)","enzyme activity, inhibitor",,added: 1 mM ATP,IC50,0.026 µM,CCn1nc(Cl)c2c1-c1cnc(N)c(c1)O[C@H](C)c1cc(F)ccc1-c1nn(C)cc1C2
"TRPA1 (Homo sapiens, UniProt O75762, V875M)",,,,EC50,0.015 µM,O=C(NC[C@@H](Cc1ccc(F)cc1)N1CCC(O)(C(F)(F)F)CC1)C1(c2ccc(Cl)cc2)CCCC1
